Measurements collected from several papers.
Lines come from different studies, so protocols differ. Numbers after ± are the reported error.
Genome polyprotein NS3 helicase domain: Genome polyprotein, NS3 helicase domain (Hepatitis C virus genotype 1b, UniProt Q9WMX2)
CDK2: Cyclin-dependent kinase 2 (CDK2, Homo sapiens, UniProt P24941)

Cc1ccc2c(c1)C(=O)[C@]1(O)CCN(c3ccc4nc(C)ccc4c3)C1=N2.Cl — inhibition (A-type voltage-gated potassium channel KCND3, with KChIP2 (KCND3, Homo sapiens, UniProt Q9UK17); concentration not given): < 25%
CCCCCC1NCCc2cc(O)c(O)cc21 (stereo not drawn) — inhibition (tyrosinase; enzyme activity, inhibitor; 100 µM, added: L-DOPA substrate): 0.37 ± 1.76%
COc1ccc(S(=O)(=O)ON=C2C=C(C)C(=O)C(C)=C2)cc1 — inhibition (HDAC1 (Homo sapiens, UniProt Q13547); enzyme activity, inhibitor; concentration not given): no inhibition
C[C@@]12C(=O)OC(=O)[C@]1(C)[C@H]1CC[C@@H]2O1 — inhibition (Genome polyprotein NS3 helicase domain; DNA binding, inhibitor; hepatitis C virus; 100 µM, added: Cy5-dT15 DNA): 0%
COc1ccc(CN2C[C@](C)(O)[C@@H]3C[C@H]2[C@@H](C)c2nc4ccccc4c(-c4ccccc4)c23)cc1 — inhibition (OPRK1 (Cavia porcellus, UniProt P41144); binding, radioligand binding; guinea pig brain; 1 µM, added: [3H]U-69,593): 0%
CC12CC3CC(C)(C1)CC(N)(C3)C2 — inhibition (Glutamate receptor 2 (Homo sapiens, UniProt P42262); ion current, negative allosteric modulator, SyncroPatch patch clamp; HEK293; 30 µM): 23%
c1cncc(OC[C@H]2CN(CCN3CCc4ccccc43)CCO2)c1 — inhibition (DRD3 (Homo sapiens, UniProt P35462); radioligand binding; concentration not given, added: [3H]N-methylspiperone): 26.7%
CC(=O)OCC1=C(C(=O)O)N2C(=O)[C@@H](NC(=O)Cc3cccs3)[C@H]2SC1 — inhibition (Genome polyprotein NS3 helicase domain; DNA binding, inhibitor; hepatitis C virus; 100 µM, added: Cy5-dT15 DNA): 0%
Nc1c(Br)cc(Br)cc1CN[C@H]1CC[C@H](O)CC1 — inhibition (Voltage-gated potassium channel, KQT; KCNQ2(Kv7.2)/KCNQ3(Kv7.3) (KCNQ3/KCNQ2, Homo sapiens, UniProt O43525+O43526); ion current, antagonist, SyncroPatch patch clamp; HEK293; 3 µM): -5%
Cn1cc(-c2ccc(-c3cncc(Cl)c3N3CCC4(CCNC4=O)CC3)cc2)cn1 — fold change in expression (COLO 205; microarray, refers to: PLA2G2A; concentration not given, 6 h, gene set PLA2(hGIIA); reference: untreated cells): -6.8
CC[C@@H]1[C@H](F)C(=O)N[C@@H]1COc1nccc2cc(C(N)=O)c(OC)cc12 — inhibition (MAP2K4 (Homo sapiens, UniProt P45985); ATP-site probe binding, ActivX profiling; THP-1 cell lysate; 0.2 mM, Lys1 site): 0.7%
Cn1cc(-n2cnc3c(NCc4nc5cc(Cl)c(Cl)cc5[nH]4)nc(N4CCOCC4)nc32)cn1 — inhibition (Cyclin-dependent kinase 12, with cyclin K (CDK12, Homo sapiens, UniProt Q9NYV4); kinase activity, inhibitor, ADP-Glo; 2 µM): 91.5%
O=C1NCN(c2ccccc2)C12CCN(CCCC(c1ccc(F)cc1)c1ccc(F)cc1)CC2 — inhibition (Genome polyprotein NS3 helicase domain; DNA binding, inhibitor; hepatitis C virus; 100 µM, added: Cy5-dT15 DNA): 0%
[2H]c1cc(C)c(NC(=O)c2cnc(Nc3cc(N4CCCCC4)nc(C)n3)s2)c(Cl)c1 — inhibition (PRKD1 (Homo sapiens, UniProt Q15139); 0.01 µM): < 30%
Cc1nc(Nc2ncc(C(=O)Nc3c(C)cccc3Cl)s2)cc(N2CCN(CCO)CC2)n1 — inhibition (Insulin-like receptor (daf-2, Caenorhabditis elegans, UniProt Q968Y9); inhibitor, radiometric phosphocellulose; 10 µM, added: ATP 0.2 mM): ~50%
CN1CCN(C(=O)c2ccccc2N(Cc2ccccc2)S(C)(=O)=O)CC1 — Kd (CDK2; binding): > 100 µM
[H]/N=C(/NC)NCCC[C@H](N)C(=O)O — inhibition (Genome polyprotein NS3 helicase domain; DNA binding, inhibitor; hepatitis C virus; 100 µM, added: Cy5-dT15 DNA): 0%
CN1CCN(c2cc(-c3ccncc3)c(-c3ccc4ccccc4c3)nn2)CC1 — inhibition (SSTR4 (Homo sapiens, UniProt P31391); antagonist, FLIPR; 10 µM): 5.7%
CCN(Cc1ccccc1C(F)(F)F)C(=O)C1CCN(S(=O)(=O)c2ccc3[nH]ncc3c2)CC1 — inhibition (mouse phorbol ester site; radioligand binding; 10 µM): 2%
NC1CCN(O)C1=O (racemic) — inhibition (Genome polyprotein NS3 helicase domain; DNA binding, inhibitor; hepatitis C virus; 100 µM, added: Cy5-dT15 DNA): 0%
O=C(Cn1cnc([N+](=O)[O-])n1)Nc1ccc(N2CCOCC2)c(Cl)c1 — Kd (CDK2; binding): > 100 µM

Some of these lines once more:
NC1CCN(O)C1=O (racemic) — inhibition (Genome polyprotein NS3 helicase domain; DNA binding, inhibitor; hepatitis C virus; 100 µM, added: Cy5-dT15 DNA): 0%
O=C1NCN(c2ccccc2)C12CCN(CCCC(c1ccc(F)cc1)c1ccc(F)cc1)CC2 — inhibition (Genome polyprotein NS3 helicase domain; DNA binding, inhibitor; hepatitis C virus; 100 µM, added: Cy5-dT15 DNA): 0%
CC12CC3CC(C)(C1)CC(N)(C3)C2 — inhibition (Glutamate receptor 2 (Homo sapiens, UniProt P42262); ion current, negative allosteric modulator, SyncroPatch patch clamp; HEK293; 30 µM): 23%
